Assay results gathered from unrelated publications.
Parts stem from different laboratories: compare values within a part only.
Chain of UniProt O95382 (whole entry, looked up): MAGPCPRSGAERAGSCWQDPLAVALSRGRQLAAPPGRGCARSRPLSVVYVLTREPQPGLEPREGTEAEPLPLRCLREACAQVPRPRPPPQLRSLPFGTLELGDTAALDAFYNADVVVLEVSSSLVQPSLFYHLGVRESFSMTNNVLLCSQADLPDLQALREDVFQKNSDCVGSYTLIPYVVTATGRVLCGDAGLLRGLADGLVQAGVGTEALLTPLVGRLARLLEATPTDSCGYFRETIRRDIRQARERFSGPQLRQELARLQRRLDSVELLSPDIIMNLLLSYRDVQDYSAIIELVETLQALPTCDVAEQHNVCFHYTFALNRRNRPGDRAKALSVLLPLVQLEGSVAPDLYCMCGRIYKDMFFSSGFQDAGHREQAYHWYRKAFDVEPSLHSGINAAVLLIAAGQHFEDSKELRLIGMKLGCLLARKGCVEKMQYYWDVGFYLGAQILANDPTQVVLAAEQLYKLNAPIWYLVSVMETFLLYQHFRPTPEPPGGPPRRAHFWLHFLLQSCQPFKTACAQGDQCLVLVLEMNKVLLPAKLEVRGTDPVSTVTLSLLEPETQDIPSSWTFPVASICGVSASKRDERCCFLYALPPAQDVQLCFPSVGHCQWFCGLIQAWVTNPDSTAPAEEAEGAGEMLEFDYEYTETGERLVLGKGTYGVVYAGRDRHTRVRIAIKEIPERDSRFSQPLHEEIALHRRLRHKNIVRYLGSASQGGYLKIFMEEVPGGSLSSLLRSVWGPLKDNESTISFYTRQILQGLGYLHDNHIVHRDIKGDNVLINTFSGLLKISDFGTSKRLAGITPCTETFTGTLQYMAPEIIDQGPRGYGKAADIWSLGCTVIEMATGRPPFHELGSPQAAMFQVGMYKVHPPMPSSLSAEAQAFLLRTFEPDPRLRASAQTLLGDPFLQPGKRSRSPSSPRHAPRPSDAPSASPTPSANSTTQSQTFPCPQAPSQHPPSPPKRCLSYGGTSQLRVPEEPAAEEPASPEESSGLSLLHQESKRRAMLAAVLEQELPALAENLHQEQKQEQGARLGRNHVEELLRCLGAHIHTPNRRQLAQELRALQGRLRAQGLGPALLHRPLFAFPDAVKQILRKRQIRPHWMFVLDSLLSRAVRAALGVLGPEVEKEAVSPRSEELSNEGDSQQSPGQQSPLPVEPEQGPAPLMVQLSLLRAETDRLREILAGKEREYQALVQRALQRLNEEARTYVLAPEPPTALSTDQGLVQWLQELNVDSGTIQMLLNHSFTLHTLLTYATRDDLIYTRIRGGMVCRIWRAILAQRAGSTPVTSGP
Chain of UniProt Q15375 (whole entry, looked up): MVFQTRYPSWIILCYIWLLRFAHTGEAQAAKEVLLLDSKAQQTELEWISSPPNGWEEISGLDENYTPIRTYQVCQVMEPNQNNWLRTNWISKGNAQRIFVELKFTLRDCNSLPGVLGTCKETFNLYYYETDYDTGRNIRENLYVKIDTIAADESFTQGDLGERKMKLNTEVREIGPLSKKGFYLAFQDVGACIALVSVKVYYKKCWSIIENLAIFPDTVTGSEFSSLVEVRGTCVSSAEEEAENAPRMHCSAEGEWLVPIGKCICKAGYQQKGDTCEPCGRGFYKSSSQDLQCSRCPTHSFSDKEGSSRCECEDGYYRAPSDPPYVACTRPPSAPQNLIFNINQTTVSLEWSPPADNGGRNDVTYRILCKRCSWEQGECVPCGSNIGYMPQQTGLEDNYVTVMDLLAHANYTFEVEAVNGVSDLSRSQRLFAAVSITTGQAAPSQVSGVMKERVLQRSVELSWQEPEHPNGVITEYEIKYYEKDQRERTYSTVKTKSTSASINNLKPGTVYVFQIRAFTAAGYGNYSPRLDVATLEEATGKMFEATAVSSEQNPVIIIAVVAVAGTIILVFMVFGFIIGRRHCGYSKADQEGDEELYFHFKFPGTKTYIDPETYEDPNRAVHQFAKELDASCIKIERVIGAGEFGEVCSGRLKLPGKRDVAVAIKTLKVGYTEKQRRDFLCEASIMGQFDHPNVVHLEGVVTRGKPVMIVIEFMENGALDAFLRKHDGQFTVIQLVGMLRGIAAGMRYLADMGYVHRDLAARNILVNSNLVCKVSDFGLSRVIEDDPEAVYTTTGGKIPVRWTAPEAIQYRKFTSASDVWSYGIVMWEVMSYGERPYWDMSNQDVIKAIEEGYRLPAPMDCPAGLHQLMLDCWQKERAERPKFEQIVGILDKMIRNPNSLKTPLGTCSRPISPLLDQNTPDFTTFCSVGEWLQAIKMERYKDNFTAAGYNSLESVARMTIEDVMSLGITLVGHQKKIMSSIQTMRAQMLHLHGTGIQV
Chain of UniProt Q13555 (whole entry, looked up): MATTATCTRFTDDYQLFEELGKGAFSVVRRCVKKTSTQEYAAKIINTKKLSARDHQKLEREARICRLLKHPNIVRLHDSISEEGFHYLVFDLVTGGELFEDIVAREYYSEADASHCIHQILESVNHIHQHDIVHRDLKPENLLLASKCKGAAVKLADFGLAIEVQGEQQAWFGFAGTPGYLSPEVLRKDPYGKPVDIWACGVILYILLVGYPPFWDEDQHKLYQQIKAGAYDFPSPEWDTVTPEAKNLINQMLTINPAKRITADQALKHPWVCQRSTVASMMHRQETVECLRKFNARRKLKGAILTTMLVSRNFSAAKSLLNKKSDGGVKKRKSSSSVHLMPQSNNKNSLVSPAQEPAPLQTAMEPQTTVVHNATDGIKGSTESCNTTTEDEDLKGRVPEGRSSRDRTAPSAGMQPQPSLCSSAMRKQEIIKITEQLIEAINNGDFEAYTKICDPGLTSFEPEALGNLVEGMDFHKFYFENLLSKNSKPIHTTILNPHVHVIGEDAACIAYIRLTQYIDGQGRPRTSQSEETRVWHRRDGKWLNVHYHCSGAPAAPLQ
Chain of UniProt Q12852 (whole entry, looked up): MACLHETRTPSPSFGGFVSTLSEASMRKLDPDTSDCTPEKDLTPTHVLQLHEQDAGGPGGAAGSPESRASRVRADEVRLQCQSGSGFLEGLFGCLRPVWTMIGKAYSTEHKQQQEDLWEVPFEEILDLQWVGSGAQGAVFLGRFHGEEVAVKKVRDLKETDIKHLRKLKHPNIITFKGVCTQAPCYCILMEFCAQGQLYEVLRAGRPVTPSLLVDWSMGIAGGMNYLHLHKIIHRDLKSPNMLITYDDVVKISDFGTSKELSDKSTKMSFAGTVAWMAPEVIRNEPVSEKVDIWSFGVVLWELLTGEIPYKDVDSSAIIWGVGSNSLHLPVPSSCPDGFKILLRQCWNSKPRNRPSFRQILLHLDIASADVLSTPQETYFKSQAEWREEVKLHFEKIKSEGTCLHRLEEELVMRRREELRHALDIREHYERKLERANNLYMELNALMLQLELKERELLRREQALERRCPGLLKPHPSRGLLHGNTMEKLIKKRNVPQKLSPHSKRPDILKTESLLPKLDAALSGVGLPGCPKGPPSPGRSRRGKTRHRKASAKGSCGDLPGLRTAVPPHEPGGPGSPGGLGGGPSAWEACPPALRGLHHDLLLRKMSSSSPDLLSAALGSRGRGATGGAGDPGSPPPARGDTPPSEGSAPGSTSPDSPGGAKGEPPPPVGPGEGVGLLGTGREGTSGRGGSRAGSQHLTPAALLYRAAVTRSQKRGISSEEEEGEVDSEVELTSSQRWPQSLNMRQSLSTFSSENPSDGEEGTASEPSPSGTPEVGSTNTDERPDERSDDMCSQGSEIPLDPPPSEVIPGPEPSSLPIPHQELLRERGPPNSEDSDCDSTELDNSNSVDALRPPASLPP
Chain of UniProt Q9BVS4 (whole entry, looked up): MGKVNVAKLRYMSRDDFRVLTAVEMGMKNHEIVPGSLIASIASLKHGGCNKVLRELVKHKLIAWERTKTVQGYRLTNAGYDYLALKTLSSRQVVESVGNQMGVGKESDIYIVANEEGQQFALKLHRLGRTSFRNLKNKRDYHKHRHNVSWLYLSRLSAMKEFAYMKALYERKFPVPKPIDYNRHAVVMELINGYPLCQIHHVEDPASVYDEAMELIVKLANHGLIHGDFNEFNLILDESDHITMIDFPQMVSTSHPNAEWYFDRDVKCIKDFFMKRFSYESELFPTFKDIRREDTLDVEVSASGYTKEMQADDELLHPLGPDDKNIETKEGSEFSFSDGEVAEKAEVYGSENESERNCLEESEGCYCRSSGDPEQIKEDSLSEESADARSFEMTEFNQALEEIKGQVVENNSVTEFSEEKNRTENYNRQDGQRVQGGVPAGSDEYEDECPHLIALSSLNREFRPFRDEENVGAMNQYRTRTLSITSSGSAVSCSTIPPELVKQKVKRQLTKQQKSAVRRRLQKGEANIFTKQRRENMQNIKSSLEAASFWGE
Chain of UniProt Q9UHD2 (whole entry, looked up): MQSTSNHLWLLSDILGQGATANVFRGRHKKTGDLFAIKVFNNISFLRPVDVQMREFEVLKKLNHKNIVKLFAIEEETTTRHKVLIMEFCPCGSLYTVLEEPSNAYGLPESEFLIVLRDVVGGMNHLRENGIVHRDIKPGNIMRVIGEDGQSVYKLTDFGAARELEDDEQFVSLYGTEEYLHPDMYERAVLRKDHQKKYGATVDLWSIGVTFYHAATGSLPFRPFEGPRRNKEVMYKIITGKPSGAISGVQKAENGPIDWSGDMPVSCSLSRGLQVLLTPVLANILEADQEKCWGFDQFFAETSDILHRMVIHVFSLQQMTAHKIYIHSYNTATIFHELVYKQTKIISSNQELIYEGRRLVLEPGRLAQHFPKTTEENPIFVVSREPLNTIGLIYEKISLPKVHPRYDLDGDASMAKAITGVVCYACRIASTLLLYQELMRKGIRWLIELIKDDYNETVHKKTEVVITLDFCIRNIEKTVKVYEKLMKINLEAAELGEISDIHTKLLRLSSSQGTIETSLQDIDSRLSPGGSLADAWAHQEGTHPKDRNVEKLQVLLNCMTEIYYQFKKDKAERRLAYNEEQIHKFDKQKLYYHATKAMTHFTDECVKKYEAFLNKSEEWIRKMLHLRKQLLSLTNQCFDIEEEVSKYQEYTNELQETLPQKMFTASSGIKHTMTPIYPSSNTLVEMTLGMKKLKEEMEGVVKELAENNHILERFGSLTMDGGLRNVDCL

Series 1
Cell line: A-375
Concentration: 100 µM
Time: 18 h
SMILES | viability [%]
CCCCNC(=O)NS(=O)(=O)c1ccc(C)cc1 | 90.7
CCCCC(=O)O[C@H]1CC[C@H]2[C@@H]3CCc4cc(O)ccc4[C@H]3CC[C@]12C | 8.54
CCOc1ccc(NC(C)=O)cc1 | 95.7

Series 2
SMILES: CNC(=O)c1ccc(Nc2ncc(C(F)(F)F)c(NCc3nccnc3N(C)S(C)(=O)=O)n2)cc1
Read-out: cell-free assay
Technique: competition with immobilised ligand
Concentration: 0.1 µM
target | remaining binding
FLT3 (Homo sapiens, UniProt P36888) | 46%
EPHA7 (Homo sapiens, UniProt Q15375) | 68%
CAMK2G (Homo sapiens, UniProt Q13555) | 79%
CAMK1 (Homo sapiens, UniProt Q14012) | 100%
EGFR (Homo sapiens, UniProt P00533, T790M) | 99%
GSK3A (Homo sapiens, UniProt P49840) | 83%
NEK6 (Homo sapiens, UniProt Q9HC98) | 81%
IKBKE (Homo sapiens, UniProt Q14164) | 99%
MAP3K4 (Homo sapiens, UniProt Q9Y6R4) | 100%
PIK3CA (Homo sapiens, UniProt P42336, C420R) | 100%
MAPK4 (Homo sapiens, UniProt P31152) | 87%
Receptor-type tyrosine-protein kinase FLT3, autoinhibited (FLT3, Homo sapiens, UniProt P36888) | 74%
DAPK2 (Homo sapiens, UniProt Q9UIK4) | 68%
RIOK1 (Homo sapiens, UniProt Q9BRS2) | 100%
STK39 (Homo sapiens, UniProt Q9UEW8) | 100%
CDKL2 (Homo sapiens, UniProt Q92772) | 79%
FLT3 (Homo sapiens, UniProt P36888, D835V/ITD) | 14%
TBK1 (Homo sapiens, UniProt Q9UHD2) | 75%
Tyrosine-protein kinase ABL1, non-phosphorylated (ABL1, Homo sapiens, UniProt P00519, Q252H) | 98%
MAP3K12 (Homo sapiens, UniProt Q12852) | 83%
RIOK2 (Homo sapiens, UniProt Q9BVS4) | 85%
RIPK1 (Homo sapiens, UniProt Q13546) | 100%
CSNK1A1 (Homo sapiens, UniProt P48729) | 94%
ULK3 (Homo sapiens, UniProt Q6PHR2) | 75%
MAP3K6 (Homo sapiens, UniProt O95382) | 90%

Series 3
Target: Histone acetyltransferase KAT6A, both winged helices, GST fusion (KAT6A, Homo sapiens, UniProt Q92794, residues 1-181)
Technique: protein binding microarray
Molecule type: double-stranded DNA, one strand shown
Matrix: in vitro
Concentration: not given
Setting: 8-mer, flanks averaged, mean of 2 arrays, mostly near background
Relative to: not given
Direction: higher = stronger binding
Construct (chain): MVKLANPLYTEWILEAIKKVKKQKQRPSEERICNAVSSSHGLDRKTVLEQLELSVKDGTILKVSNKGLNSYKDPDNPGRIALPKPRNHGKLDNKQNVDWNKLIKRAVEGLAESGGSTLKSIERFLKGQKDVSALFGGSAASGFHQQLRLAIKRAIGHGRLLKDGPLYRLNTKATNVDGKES
Sequence | E-score
TGAGACAA | -0.179
AAGCAGTG | -0.105
GGCACCAA | 0.0565
GAACGACC | -0.0486
CATCTTGC | -0.093
ACTGTTCT | -0.129
AGGGCGAG | -0.0347
CCGATGGC | 0.0966

Series 4
Target: RING finger protein unkempt homolog, zinc fingers 1-6, GST-SBP tag (UNK, Homo sapiens, UniProt Q9C0B0, residues 30-357)
Technique: RNA Bind-n-Seq
Molecule type: RNA
Matrix: in vitro
Concentration: not given
Setting: RNA with constant flanks, human and mouse sites, ends assumed
Relative to: input RNA pool
Direction: higher = stronger binding
All sequences stand within: GGGAGUUCUACAGUCCGACGAUC … CAACAGAGGAUUGAGCAUCA
Residues (chain): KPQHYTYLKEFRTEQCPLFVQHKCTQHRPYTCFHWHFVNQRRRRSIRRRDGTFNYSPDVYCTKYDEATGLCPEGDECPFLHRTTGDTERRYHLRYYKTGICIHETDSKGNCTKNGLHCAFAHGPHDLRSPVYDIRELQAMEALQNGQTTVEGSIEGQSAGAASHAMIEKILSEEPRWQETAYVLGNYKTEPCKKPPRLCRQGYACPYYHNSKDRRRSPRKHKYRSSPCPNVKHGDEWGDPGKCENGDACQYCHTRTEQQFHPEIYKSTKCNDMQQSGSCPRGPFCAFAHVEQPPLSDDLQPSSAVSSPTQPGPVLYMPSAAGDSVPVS
Sequence | bound/input enrichment [ratio]
CGGGAGCGGCAGCAGAGGGGGCAUAGACACUCGGAGCAGCCUCAGCGUCUCCUCGUCAUUCCUGCCGUGGCCCGCAGUGCCCGACUCUUGGGUUCCCACUGAAGACGCUGCGCGCUGCUG | 0.184
AUCUAUGCUAACCUGUCUGAUGAAAAGGCUUUCGUGUUUUCAGUCGCCUUGGCAGAAAUAAAUAGAAAAAUUAUCAAUCAAAGACUUAUUCUCUGAUACUUGUUUGCAAAAUCUGCUGAA | 1.77
GUGUUGAGUUGGCAUUGUACAGAAAUUAACAGCCAUAUUGGUCUAGAAACGUUAAACUUAAUUUUUUUCCAUUUGUACAGGGGUAACGCACUGUAUUAAAUAUGUAAGGUCUUAUCUACA | 3.1
UGUGGUCUGAUCAGUUAAUUUGUAUGUAGCAGUGUAUGCUCUCAUAUACAAUUACUGACCUAUGCUCUAAAACAUGAAUGCUUUGUUACAGACCCAAGCUGUCCAUUUCUGUGAUGGGUU | 0.0778
AACCACUGACGUGUUUUUAUUUCCUUCUAUAUGAUUUUAAGAUGUGUUUUCUGCAUUCUGUAUAGAAACAUAUCAAACUAAAUAAAAGCAGUGUCUUUAUUACAAUGUCAUUGCCUCUGA | 0.189
GACUAUCUCCCAGAUGCCGGCAUUACAGGUAUUUGCCACCACACCCAGCUAAGAAGUUCUCUCUUUUUUUCUCUUCUCUCUUCUCUUUCCCUCCCUUCCUCCUUCCCUCUAAAAUUAACG | 1.32
CCUCCUACCAAGGGUCUCCGCAAGGAGGAACGGCCAGGCCCUGGGCCCGGCGAGGUGCGUAUAGCUUUCCGAAUCUCCAAUGUCCGAGAGCCCCAUUCACCAGAUGGCAACUUACCCAAU | 0.12
UUAGCUAAACAUCCAUGUAAUGCCUCAAUGGAAUGUGACAAGUGUCAGAGGCGGCAGAAGAAUAGAGCAUUUUGCUACUUUUGUAAUUCUGUACAGAAGUUACCAAUUUGUGCACAGUGU | 0.683

Series 5
Target: Hepatocyte nuclear factor 3-beta, forkhead domain (FOXA2, Homo sapiens, UniProt Q9Y261, residues 142-269)
Technique: protein-binding microarray
Molecule type: double-stranded DNA, one strand shown
Matrix: in vitro
Concentration: not given
Setting: k-mer, scored over probes, only values ≥0.25
Direction: higher = stronger binding
Construct (chain): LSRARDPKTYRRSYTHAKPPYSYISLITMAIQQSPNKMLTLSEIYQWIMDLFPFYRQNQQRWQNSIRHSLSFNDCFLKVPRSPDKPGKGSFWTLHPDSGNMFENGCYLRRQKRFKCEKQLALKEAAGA
Sequence | E-score
GGAGTAAA | 0.267
GTACAAAA | 0.27
TACACTCA | 0.274
ACCACATA | 0.346
ATAATAGA | 0.322
ACACTTTA | 0.285
GGTCAACA | 0.329
TGATAACA | 0.301

Series 6
Species: mouse
Matrix: microsomes or S9
Concentration: 2 µM
Time: 0.5 h
Structure (SMILES) | remaining compound [%]
COC(=O)c1ccc(-c2ccccc2NS(C)(=O)=O)s1 | 57.3
COc1cc(-c2c3oc4cc(O)ccc4c3nc3c2c(O)nn3C2CCCCC2)ccc1O | 0.286
CCc1nc(Cl)c2c3c(sc2n1)CC(C)CC3 (stereo not shown) | 2.43

For quick reference, copied from above (series 3):
Sequence | E-score
GGCACCAA | 0.0565
GAACGACC | -0.0486
CCGATGGC | 0.0966
TGAGACAA | -0.179
